Assay results gathered from unrelated publications.
Each line is one published result; not all experiments were run side by side. Numbers after ± are the reported error. Converted amounts (≈) assume the structure as drawn.

Compound | organism | test | system | setting | how to read | endpoint | result
CC(=O)CCC1C(=O)NC(C(C)C)C(=O)NC(Cc2cc(O)cc(F)c2)C(=O)N2CCCC(N2)C(=O)OC(C(C)=CC=CC(=O)N2CCCCO2)CC=CC=CC(O)C(C)C1O (centres unmarked) | Hepatitis C virus | viral replication | Huh7, Con1 replicon | 20% human serum |  | EC50 | 0.014 ± 0.001 µM
CC[C@H](C)[C@@H]1NC(=O)[C@H](CO)NC(=O)[C@H](CCCCN)NC(=O)[C@@H]2CSSC[C@@H](C(=O)N[C@@H](Cc3ccc(O)cc3)C(N)=O)NC(=O)[C@H](CCCCN)NC(=O)[C@@H]3CSSC[C@H](NC(=O)[C@H](CCCNC(=N)N)NC(=O)[C@H](CC(C)C)NC(=O)[C@H](CC(=O)O)NC(=O)[C@H](CC(=O)O)NC(=O)[C@H](CCC(=O)O)NC(=O)[C@H](CC(N)=O)NC(=O)[C@H](Cc4c[nH]c5ccccc45)NC(=O)[C@@H]4CCCN4C(=O)CNC(=O)[C@H](CC(N)=O)NC(=O)[C@@H](NC(=O)CNC(=O)[C@H](Cc4ccccc4)NC(=O)CN)CSSC[C@H](NC(=O)[C@H](Cc4ccc(O)cc4)NC(=O)CNC(=O)CNC(=O)[C@H](CCCCN)NC(=O)[C@H](Cc4ccc(O)cc4)NC(=O)CNC(=O)[C@H](CCCCN)NC1=O)C(=O)N[C@@H](C)C(=O)N[C@@H](CCCCN)C(=O)NCC(=O)NCC(=O)N[C@@H](Cc1ccccc1)C(=O)N[C@@H](C(C)C)C(=O)N3)C(=O)N[C@@H](Cc1c[nH]cn1)C(=O)N[C@@H](CC(N)=O)C(=O)N[C@@H](Cc1c[nH]cn1)C(=O)N2 | Streptococcus pneumoniae |  | BS-442 | 24 h |  | MBC | 0.25 µM
Cc1cc(C(=O)Nc2nc3cccc(C)c3n2[C@H]2CCCCN(C(=O)/C=C/CN(C)C)C2)ccn1 | Trypanosoma brucei | propidium iodide flow cytometry | bloodstream form | concentration not given, 6 h |  | cells in S phase | 20.5%
CCOC(=O)C1(Cc2ccccc2)Oc2cc(OC)ccc2N(Cc2ccccc2)C1=O (centres unmarked) | Setaria viridis | fresh weight, greenhouse postemergence |  | postemergence, 150 g ai/ha, 21 days |  | inhibition | 43.7 ± 1.61%
CC[C@H](C)[C@H](NC(=O)[C@H](CCCCN)NC(=O)[C@H](CCCCN)NC(=O)[C@H](Cc1ccccc1)NC(=O)[C@H](Cc1ccccc1)NC(=O)[C@H](CCCCN)NC(=O)[C@H](CCCCN)NC(=O)[C@H](Cc1ccccc1)NC(=O)[C@H](CCCNC(=N)N)NC(=O)[C@@H](N)CCCCN)C(=O)N[C@@H](CCCCN)C(=O)N[C@@H](CCCCN)C(=O)N[C@@H](CO)C(=O)N[C@H](C(=O)N[C@@H](CCCCN)C(=O)N[C@@H](CCCCN)C(=O)N[C@@H](CCCNC(=N)N)C(=O)N[C@H](C(=O)N[C@@H](CCCCN)C(=O)N[C@@H](CCCCN)C(=O)N[C@@H](CC(C)C)C(=O)N[C@@H](Cc1ccccc1)C(=O)N[C@@H](CCCCN)C(=O)N[C@@H](CCCCN)C(=O)N1CCC[C@H]1C(=O)N[C@@H](CCCNC(=N)N)C(=O)N[C@H](C(=O)N[C@H](C(=O)N1CCC[C@H]1C(=O)N[C@H](C(=O)N[C@@H](CO)C(=O)N[C@H](C(=O)N1CCC[C@H]1C(=O)N[C@@H](Cc1ccccc1)C(=O)O)[C@@H](C)CC)[C@@H](C)CC)[C@@H](C)CC)C(C)C)C(C)C)C(C)C | Pseudomonas aeruginosa |  | P4 clinical isolate | 20 h |  | MBC | 16 µg/mL
CC(C)[C@H]1NC(=O)[C@H](Cc2ccccc2)NC(=O)[C@@H](C(C)C)NC(=O)[C@@H](C)NC(=O)[C@H](CC(=O)O)NC(=O)[C@@H](Cc2c(-c3ccc(-c4ccc5ccccc5c4)cc3)[nH]c3ccccc23)NC(=O)[C@@H](CO)NC1=O | Mycobacterium marinum |  |  |  |  | MIC90 | > 100 µM
CN(C)c1nc(NCc2ccc(Oc3ccccc3)cc2)c(/N=N/c2ccc(Cl)cc2)c(N(C)C)n1 | Ostrinia furnacalis | leaf dipping |  | 500 mg/L, 96 h |  | mortality | 100%
FC(F)(F)c1cccc(CNc2nc(NC3CCN(Cc4ccccc4)CC3)c3nc[nH]c3n2)c1 | Cryptococcus neoformans | RNA-seq, refers to: PIK1 (CNAG_07744) |  | 48 µg/mL, 3 h | baseline: untreated | mRNA fold change | 1.48
CCC(=O)OCCSC[C@H](N)C(=O)N[C@H](CCN)C(=O)N[C@@H](CCN)C(=O)N[C@@H](CCN)C(=O)N[C@@H](CC(C)C)C(=O)N[C@H](Cc1ccccc1)C(=O)N[C@@H](CCN)C(=O)N[C@@H](CCN)C(=O)N[C@@H](CC(C)C)C(N)=O | Acinetobacter calcoaceticus | BHI agar spot plating |  | 24 h, 37 °C |  | MBC | > 128 µM
COc1ccc(Nc2ncnc3ccc(-c4ccc(S(=O)(=O)N5CCOCC5)cc4)cc23)cc1Cl | Trypanosoma cruzi | intracellular amastigote growth, β-galactosidase CPRG | 3T3, Tulahuen, β-galactosidase-expressing | 10 µM, 96 h |  | inhibition | 43%
CCCC(C)Oc1cccc(NC(=O)c2cccnc2)c1 (centres unmarked) | Saccharomyces cerevisiae |  | Δpdr5 |  |  | MIC50 | 8 µg/mL (≈ 28.1 µM)

Excerpt of the above:
Compound | organism | test | system | setting | how to read | endpoint | result
CC(C)[C@H]1NC(=O)[C@H](Cc2ccccc2)NC(=O)[C@@H](C(C)C)NC(=O)[C@@H](C)NC(=O)[C@H](CC(=O)O)NC(=O)[C@@H](Cc2c(-c3ccc(-c4ccc5ccccc5c4)cc3)[nH]c3ccccc23)NC(=O)[C@@H](CO)NC1=O | Mycobacterium marinum |  |  |  |  | MIC90 | > 100 µM
